Results of several laboratories.
Numbers after ± are the reported error.
AMC9: Metacaspase-9 (AMC9, Arabidopsis thaliana, UniProt Q9FYE1)
Chain of UniProt Q9FYE1 (whole entry, looked up): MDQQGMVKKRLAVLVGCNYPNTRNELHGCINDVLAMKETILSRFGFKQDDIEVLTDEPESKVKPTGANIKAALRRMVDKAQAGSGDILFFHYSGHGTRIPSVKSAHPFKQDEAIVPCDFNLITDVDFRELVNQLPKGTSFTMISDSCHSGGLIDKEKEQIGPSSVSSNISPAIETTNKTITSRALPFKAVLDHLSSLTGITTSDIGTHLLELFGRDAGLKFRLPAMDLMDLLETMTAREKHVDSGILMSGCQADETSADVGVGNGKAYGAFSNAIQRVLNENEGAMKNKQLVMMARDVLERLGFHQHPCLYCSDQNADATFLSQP
ilvC: Ketol-acid reductoisomerase (NADP(+)) (ilvC, Mycobacterium tuberculosis, UniProt P9WKJ7)
Chain of UniProt P9WKJ7 (whole entry, looked up): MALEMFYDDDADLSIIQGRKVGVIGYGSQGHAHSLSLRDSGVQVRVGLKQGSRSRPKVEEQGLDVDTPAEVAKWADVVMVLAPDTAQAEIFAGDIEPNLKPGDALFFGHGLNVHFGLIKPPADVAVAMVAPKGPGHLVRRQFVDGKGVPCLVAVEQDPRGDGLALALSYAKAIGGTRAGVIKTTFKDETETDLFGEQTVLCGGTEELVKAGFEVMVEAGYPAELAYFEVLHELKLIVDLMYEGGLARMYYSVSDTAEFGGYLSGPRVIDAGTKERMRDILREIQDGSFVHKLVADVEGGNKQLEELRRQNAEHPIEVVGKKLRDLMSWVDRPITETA
PGR: Progesterone receptor (PGR, Homo sapiens, UniProt P06401)
Chain of UniProt P06401 (whole entry, looked up): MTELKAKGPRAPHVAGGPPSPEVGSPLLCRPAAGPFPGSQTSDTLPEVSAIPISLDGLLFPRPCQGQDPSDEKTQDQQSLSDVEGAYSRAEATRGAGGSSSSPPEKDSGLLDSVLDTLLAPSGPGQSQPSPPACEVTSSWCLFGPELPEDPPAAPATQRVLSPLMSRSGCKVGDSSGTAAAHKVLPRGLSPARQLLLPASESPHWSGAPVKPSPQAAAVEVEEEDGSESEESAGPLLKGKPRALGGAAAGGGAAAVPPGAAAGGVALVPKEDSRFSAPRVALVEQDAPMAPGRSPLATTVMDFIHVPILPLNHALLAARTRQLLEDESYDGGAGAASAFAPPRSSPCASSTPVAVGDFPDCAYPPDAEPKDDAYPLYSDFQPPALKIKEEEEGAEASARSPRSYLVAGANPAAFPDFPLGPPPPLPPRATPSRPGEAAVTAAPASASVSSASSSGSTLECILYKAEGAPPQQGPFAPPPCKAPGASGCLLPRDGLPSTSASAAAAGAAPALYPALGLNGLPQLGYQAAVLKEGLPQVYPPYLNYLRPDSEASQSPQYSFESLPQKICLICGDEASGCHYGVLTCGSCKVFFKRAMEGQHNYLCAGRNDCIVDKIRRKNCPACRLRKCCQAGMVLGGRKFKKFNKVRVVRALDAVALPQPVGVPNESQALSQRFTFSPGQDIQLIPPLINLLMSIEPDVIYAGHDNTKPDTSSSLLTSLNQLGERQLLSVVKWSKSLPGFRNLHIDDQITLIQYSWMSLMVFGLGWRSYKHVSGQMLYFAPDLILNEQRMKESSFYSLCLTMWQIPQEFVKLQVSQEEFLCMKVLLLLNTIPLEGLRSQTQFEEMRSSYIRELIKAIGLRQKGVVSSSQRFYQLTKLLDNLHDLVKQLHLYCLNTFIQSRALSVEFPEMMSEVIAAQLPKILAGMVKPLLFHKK
Chain of UniProt P9WIP3 (whole entry, looked up): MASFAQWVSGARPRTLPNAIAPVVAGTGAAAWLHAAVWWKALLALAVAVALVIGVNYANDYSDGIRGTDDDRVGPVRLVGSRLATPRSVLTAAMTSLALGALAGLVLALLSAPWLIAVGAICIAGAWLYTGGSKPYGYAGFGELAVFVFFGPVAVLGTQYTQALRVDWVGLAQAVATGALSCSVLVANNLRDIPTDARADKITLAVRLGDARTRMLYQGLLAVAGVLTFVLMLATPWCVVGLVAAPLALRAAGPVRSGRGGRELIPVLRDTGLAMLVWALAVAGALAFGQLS
Chain of UniProt O95342 (whole entry, looked up): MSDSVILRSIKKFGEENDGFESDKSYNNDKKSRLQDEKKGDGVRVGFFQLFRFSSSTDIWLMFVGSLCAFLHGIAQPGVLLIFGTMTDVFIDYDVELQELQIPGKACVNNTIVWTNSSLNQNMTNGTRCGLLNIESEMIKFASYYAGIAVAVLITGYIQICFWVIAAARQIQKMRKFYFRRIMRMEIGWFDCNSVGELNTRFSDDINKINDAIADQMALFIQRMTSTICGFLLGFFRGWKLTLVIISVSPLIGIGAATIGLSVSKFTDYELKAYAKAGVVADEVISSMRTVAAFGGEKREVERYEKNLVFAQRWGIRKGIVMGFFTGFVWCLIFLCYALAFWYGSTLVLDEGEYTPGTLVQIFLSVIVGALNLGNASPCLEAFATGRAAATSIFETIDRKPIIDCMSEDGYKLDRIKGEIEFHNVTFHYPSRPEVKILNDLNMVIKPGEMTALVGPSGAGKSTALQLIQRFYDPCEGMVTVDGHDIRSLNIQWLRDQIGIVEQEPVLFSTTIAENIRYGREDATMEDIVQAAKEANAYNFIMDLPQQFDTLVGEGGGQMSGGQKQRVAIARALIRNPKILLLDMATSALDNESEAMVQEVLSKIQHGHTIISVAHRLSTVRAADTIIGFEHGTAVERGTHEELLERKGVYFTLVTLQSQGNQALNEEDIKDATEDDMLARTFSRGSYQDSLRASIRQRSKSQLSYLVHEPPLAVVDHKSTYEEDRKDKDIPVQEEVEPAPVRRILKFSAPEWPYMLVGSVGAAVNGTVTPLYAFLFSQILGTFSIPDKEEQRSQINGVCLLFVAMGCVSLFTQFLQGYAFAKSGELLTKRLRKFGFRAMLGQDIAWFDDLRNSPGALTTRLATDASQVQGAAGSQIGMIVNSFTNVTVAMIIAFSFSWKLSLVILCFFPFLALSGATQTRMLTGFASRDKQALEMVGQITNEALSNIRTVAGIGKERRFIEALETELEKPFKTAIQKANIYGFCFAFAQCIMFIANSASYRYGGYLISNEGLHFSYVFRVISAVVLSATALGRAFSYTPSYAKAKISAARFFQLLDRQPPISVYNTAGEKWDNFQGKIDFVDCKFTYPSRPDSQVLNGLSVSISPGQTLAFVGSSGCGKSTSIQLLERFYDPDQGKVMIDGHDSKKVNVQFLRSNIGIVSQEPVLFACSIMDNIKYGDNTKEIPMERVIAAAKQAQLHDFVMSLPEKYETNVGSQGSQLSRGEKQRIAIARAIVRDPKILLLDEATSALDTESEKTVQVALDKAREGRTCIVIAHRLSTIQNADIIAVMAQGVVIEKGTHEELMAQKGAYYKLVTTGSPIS
Chain of UniProt P9WGK3 (whole entry, looked up): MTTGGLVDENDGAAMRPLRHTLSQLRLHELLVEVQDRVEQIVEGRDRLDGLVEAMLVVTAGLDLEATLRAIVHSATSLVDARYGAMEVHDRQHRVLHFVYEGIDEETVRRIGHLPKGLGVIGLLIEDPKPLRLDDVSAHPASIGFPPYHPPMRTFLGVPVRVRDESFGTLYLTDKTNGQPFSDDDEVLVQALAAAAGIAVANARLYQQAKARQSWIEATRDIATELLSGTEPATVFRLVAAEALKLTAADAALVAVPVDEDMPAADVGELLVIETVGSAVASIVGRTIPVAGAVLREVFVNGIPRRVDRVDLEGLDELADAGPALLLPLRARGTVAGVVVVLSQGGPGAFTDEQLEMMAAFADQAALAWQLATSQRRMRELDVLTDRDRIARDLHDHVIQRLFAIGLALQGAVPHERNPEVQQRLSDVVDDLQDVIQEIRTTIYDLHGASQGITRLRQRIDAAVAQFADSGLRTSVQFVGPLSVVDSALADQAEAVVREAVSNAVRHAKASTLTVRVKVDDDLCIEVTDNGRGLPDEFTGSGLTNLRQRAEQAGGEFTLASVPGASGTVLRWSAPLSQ
Chain of UniProt P18507 (whole entry, looked up): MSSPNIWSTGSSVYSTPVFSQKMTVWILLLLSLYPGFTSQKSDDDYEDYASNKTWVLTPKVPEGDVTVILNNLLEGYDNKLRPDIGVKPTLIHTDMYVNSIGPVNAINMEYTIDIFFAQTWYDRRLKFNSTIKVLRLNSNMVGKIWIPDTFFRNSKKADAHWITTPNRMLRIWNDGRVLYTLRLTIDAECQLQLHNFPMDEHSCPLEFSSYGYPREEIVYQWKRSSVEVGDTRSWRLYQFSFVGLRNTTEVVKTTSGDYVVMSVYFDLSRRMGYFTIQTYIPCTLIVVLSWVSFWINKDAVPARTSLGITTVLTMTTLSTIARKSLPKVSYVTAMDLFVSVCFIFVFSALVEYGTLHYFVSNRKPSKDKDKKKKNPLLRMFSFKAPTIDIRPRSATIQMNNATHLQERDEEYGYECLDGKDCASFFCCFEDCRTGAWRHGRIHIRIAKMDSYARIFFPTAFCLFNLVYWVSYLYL
Chain of UniProt Q60857 (whole entry, looked up): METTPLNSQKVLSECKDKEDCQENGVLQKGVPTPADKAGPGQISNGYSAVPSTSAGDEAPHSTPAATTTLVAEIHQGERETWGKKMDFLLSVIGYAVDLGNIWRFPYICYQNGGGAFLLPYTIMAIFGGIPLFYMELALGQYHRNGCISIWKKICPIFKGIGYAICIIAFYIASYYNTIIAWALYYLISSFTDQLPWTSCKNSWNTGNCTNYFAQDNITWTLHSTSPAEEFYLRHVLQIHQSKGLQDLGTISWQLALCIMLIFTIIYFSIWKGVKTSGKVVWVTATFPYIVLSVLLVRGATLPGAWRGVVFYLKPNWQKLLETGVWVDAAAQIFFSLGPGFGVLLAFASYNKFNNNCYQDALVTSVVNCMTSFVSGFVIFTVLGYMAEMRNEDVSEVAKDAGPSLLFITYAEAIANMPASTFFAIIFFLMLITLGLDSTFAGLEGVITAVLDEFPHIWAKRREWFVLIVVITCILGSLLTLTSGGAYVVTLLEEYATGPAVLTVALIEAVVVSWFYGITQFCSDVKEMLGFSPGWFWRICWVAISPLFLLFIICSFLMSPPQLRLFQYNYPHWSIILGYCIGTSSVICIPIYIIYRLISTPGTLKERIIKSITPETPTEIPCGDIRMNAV

| SMILES | target | assay | test system | setting | endpoint | result |
| --- | --- | --- | --- | --- | --- | --- |
| O=C1NC(=S)NC(=O)C1=CC=Cc1ccco1 | AMC9 | enzyme activity, inhibitor | – | pH 5.5, with: VRPR-AMC 50 µM | IC50 | 60 µM |
| O=c1[nH]c2scnc2c(=O)n1O | ilvC | inhibitor | – | 30 min preincubation, with: NADPH | Ki | 59.4 ± 13 µM |
| Clc1cc(Cl)cc(N2CCNCC2)c1 | CHRM4 (Homo sapiens, UniProt P08173) | ERK1/2 phosphorylation, agonist | CHO cells | – | EC50 | > 20 µM |
| CCCN(C)c1ccc(CN2CCC(COc3cccc(C(=O)N4CCOCC4)c3)CC2)cc1 | 1,4-dihydroxy-2-naphthoate octaprenyltransferase (Mycobacterium tuberculosis, UniProt P9WIP3) | enzyme activity, inhibitor | – | – | IC50 | no inhibition |
| CO[C@H]1[C@H](O[C@H]([C@H]2O[C@@H](n3ccc(=O)[nH]c3=O)[C@H](O)[C@@H]2O)[C@H](NCCCNC(=O)[C@@H](NC(=O)[C@@H](NC(=O)N[C@H](C(=O)O)C(C)C)[C@@H]2CCN=C(N)N2)[C@@H](O)C(C)C)C(=O)O)O[C@H](CN)[C@H]1O | MurX, Mycolicibacterium smegmatis | enzyme activity, inhibitor | P-60 membrane fraction | – | IC50 | 0.35 ± 0.008 µM |
| C[C@@H](Cc1ccccc1)N(C)Cc1ccccc1 | ADRA2C (Homo sapiens, UniProt P18825) | inhibitor | – | – | IC50 | 0.681 µM |
| O=c1[nH]c2ncsc2c(=O)n1O | ilvC | inhibitor | – | 30 min preincubation, with: NADPH | Ki | 0.3 ± 0.04 µM |
| NCCc1ccc(Oc2ccc(O)cc2)c(I)c1 | Slc6a4 (Mus musculus, UniProt Q60857) | serotonin uptake, inhibitor | TAAR1 knock-out mice, striatal synaptosomes | 15 min, with: [3H]serotonin 50 nM | IC50 | 4.6 ± 1.1e-06 µM |
| O=C1NC(=S)N(c2ccccc2)C(=O)C1=Cc1ccc(O)cc1 | AMC9 | enzyme activity, inhibitor | – | pH 5.5, with: VRPR-AMC 50 µM | IC50 | 31 µM |
| CC(=O)[C@@]1(O)CC[C@H]2[C@@H]3C=C(Cl)C4=CC(=O)[C@@H]5C[C@@H]5[C@]4(C)[C@H]3CC[C@@]21C | PGR | receptor activity | – | – | EC50 | 0.003 µM |
| CCCc1cc(O)c2c(c1)OC(C)(C)[C@@H]1CCC(C)=C[C@@H]21 | TRPV3 (Homo sapiens, UniProt Q8NET8, E501A) | calcium uptake, agonist | HEK293S | mutant E501A, site 2 | EC50 | 35.5 ± 0.48 µM |
| CCC(=O)O[C@H]1CC[C@H]2[C@@H]3CCC4=CC(=O)CC[C@]4(C)[C@H]3CC[C@]12C | PGR | inhibitor | – | – | IC50 | 0.328 µM |
| CCCc1nc2[nH]c(=O)n(O)c(=O)c2s1 | ilvC | inhibitor | – | 30 min preincubation, with: NADPH | Ki | 1.01 ± 0.14 µM |
| Brc1ccc2c(c1)C(c1ccccn1)=NCc1c(-c3cnco3)ncn1-2 | GABRG2/GABRA3, with β3 subunit (Homo sapiens, UniProt P18507+P34903) | – | – | – | IC50 | 0.381 µM |
| Nc1ncnc2c1ncn2[C@@H]1O[C@H](COP(=O)(O)OP(=O)(O)NP(=O)(O)O)[C@@H](O)[C@H]1O | Oxygen sensor histidine kinase response regulator DevS/DosS, CA domain (devS, Mycobacterium tuberculosis, UniProt P9WGK3) | – | – | – | Kd | 53 ± 13 µM |
| CC(C)c1nc2[nH]c(=O)n(O)c(=O)c2s1 | ilvC | inhibitor | – | 30 min preincubation, with: NADPH | Ki | 1.06 ± 0.14 µM |
| C[C@]1(O)CC[C@H]2[C@@H]3CCC4=CC(=O)CC[C@]4(C)[C@@]3(F)[C@@H](O)C[C@@]21C | PGR | agonist | – | – | EC50 | 0.074 µM |
| Cc1nc2c(=O)n(O)c(=O)[nH]c2s1 | ilvC | inhibitor | – | 30 min preincubation, with: NADPH | Ki | 158 ± 44.4 µM |
| O=C1NC(=S)N(c2ccccc2)C(=O)C1=Cc1ccc(-c2ccc(C(=O)O)c(Cl)c2)o1 | AMC9 | enzyme activity, inhibitor | – | pH 5.5, with: VRPR-AMC 50 µM | IC50 | 24 µM |
| CCc1nc2c(=O)n(O)c(=O)[nH]c2s1 | ilvC | inhibitor | – | 30 min preincubation, with: NADPH | Ki | 43.1 ± 9 µM |
| CCC(=O)[C@@]1(C)[C@H](C)C[C@H]2[C@@H]3CCC4=CC(=O)C=C[C@]4(C)[C@H]3[C@@H](O)C[C@@]21C | PGR | agonist | – | – | EC50 | 0.003 µM |
| Cc1cc2[nH]c(=O)n(O)c(=O)c2o1 | ilvC | inhibitor | – | 30 min preincubation, with: NADPH | Ki | 166 ± 61.5 µM |
| CCC1(c2ccccc2)C(=O)NC(=O)NC1=O | ABCB11 (Homo sapiens, UniProt O95342) | inhibitor | – | – | IC50 | > 100 µM |

Excerpt of the above:
| SMILES | target | assay | test system | setting | endpoint | result |
| --- | --- | --- | --- | --- | --- | --- |
| CCC(=O)[C@@]1(C)[C@H](C)C[C@H]2[C@@H]3CCC4=CC(=O)C=C[C@]4(C)[C@H]3[C@@H](O)C[C@@]21C | PGR | agonist | – | – | EC50 | 0.003 µM |
| O=c1[nH]c2ncsc2c(=O)n1O | ilvC | inhibitor | – | 30 min preincubation, with: NADPH | Ki | 0.3 ± 0.04 µM |
| CC(C)c1nc2[nH]c(=O)n(O)c(=O)c2s1 | ilvC | inhibitor | – | 30 min preincubation, with: NADPH | Ki | 1.06 ± 0.14 µM |
| NCCc1ccc(Oc2ccc(O)cc2)c(I)c1 | Slc6a4 (Mus musculus, UniProt Q60857) | serotonin uptake, inhibitor | TAAR1 knock-out mice, striatal synaptosomes | 15 min, with: [3H]serotonin 50 nM | IC50 | 4.6 ± 1.1e-06 µM |
